Published values of several laboratories.
Parts stem from different laboratories: compare values within a part only. Positions count from the first letter of the parent shown.

Study 1
Target: Ras GTPase-activating protein-binding protein 1, full length (G3BP1, Homo sapiens, UniProt Q13283)
Chain of UniProt Q13283 (whole entry, looked up): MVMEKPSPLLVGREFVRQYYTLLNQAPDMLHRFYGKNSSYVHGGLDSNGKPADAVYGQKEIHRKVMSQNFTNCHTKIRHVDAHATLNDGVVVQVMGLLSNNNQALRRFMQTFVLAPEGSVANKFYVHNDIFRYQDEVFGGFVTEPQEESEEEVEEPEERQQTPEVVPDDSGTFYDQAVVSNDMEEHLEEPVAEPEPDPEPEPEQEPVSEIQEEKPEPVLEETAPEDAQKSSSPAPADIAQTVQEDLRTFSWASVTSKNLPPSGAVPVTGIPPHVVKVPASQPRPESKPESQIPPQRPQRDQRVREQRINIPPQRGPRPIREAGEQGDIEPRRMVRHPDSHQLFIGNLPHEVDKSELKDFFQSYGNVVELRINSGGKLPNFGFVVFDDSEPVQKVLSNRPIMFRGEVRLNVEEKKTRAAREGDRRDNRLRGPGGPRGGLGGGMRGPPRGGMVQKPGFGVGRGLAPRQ
Technique: RNA Bind-n-Seq
Form: RNA
Sample: in vitro
Tested at: 200 nM
Notes: whole 134-nt RNA, ends assumed
With: 150 mM LiCl
Baseline: input library
Direction: higher = stronger binding
All molecules: 7-deaza-guanosine replaces G
Oligonucleotide	log2 enrichment
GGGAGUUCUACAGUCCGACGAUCAGUCCUGUGCUACACAUCGUAUGUACCGAAUCGGGUUUUUUUGGGUGGGUUUUUGGGAAAGUAUUAUGUUACGCCGUUCGGAUCUGCACUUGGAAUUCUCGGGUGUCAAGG	-0.82
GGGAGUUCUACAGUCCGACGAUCUGGCCCUGGUGGCAUGCGGGGAGGAAGAGGUGGCCUCAUGGAACGUGGUGGUCCCGGUGGAAUGUUCAGAGGUGGCCGUGGUGGAGACAGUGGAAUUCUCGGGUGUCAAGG	0.0106
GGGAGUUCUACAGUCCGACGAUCACCAUGCAGGUGGGCAUCUUUGGGAAGUGGGGCAAGGGGGGGAUAGGGAGGGGGGUAACACUUUGGGAACAGGUGGUCCCAGGGCGUUUCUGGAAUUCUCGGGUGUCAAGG	0.371
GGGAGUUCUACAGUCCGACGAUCUAAUUGUGAUCUACAUUUUAAAAUAUCAAGAGAUCGUCUCAGUGCUUCUUCCCUUACAAUGGAGAGUUUUGCUUUUCUUUGGGCUGGAGGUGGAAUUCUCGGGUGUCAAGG	-2.32
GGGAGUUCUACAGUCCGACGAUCCCUGUGCUACACAUCGUAUGUACCGAAUCGGUUUUUUUGGGUUUUUUUGGGUUUUUUUGGGAAAGUAUUAUGUUACGCCGUUCGGAUCUGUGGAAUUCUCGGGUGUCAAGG	-0.0305
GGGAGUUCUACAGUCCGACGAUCACUGGACCAGAUUGUUGAAAAAGGAAGACCAGCUCCUGGCUUCCAUCAUGGCGAUGGACCGGGAAAUGCAGUUCAAGAAAUCAUGAUUCCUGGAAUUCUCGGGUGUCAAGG	-1.53
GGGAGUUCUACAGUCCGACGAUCUGGCCCUGGUGGCAUGCGGGGAGGAAGAGGUGGCCUCAUGGAUCGGGGUGGUCCCGGUGGAAUGUUCAGAGGUGGCCGUGGUGGAGACAGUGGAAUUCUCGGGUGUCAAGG	0.156
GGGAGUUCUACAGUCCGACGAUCACCAUGCAGGUGGGCAUCUUUGGGAAGUGGGGCAAGGGGGGGAUAGGGAGGGGGGUAACACUUUGGGAACAGGUGGUCCCAGGUCGUUCCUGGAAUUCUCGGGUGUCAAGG	0.108

Study 2
Target: ABI1, truncated, D143A, DHFR fusion (Arabidopsis thaliana)
Technique: DHFR PCA, deep sequencing
Sample: yeast
Notes: methotrexate growth selection, single substitutions
With: (+)-ABA 710 µM
Baseline: wild-type fitted maximum
Direction: higher = stronger binding
Starting sequence: PYL1, truncated, DHFR fusion (Arabidopsis thaliana); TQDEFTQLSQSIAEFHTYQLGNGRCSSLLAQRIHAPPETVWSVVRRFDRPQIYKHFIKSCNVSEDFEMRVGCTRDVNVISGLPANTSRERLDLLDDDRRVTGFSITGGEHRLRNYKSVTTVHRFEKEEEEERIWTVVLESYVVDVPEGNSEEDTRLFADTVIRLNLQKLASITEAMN
Variant	relative binding score [%]
I172V	101
E64Q	107
S63Q	104
D153E	106
W41R	-3.69
V70A	96.3
E147D	106
R155F	60.8
V44Y	9.52
H16S	26.2
R155A	90
Q167W	77
I133M	103
N22V	104
M176P	105
K54H	17
Q167K	106
D48S	88.6
I52V	103
I105C	94.6
Q7W	109
V118T	111
Q7T	107
S63L	96.9
N85S	102

Study 3
Target: Phosphate system positive regulatory protein PHO4, full length, GST-tagged (PHO4, Saccharomyces cerevisiae, UniProt P07270, residues 1-312)
Technique: competition protein-binding microarray
Form: double-stranded DNA, one strand shown
Sample: in vitro
Tested at: 2 µM
Notes: whole 60-bp probe, lowest competitor level
With: Cbf1 competitor, 0.05 µM
Direction: higher = stronger binding
Target sequence (chain): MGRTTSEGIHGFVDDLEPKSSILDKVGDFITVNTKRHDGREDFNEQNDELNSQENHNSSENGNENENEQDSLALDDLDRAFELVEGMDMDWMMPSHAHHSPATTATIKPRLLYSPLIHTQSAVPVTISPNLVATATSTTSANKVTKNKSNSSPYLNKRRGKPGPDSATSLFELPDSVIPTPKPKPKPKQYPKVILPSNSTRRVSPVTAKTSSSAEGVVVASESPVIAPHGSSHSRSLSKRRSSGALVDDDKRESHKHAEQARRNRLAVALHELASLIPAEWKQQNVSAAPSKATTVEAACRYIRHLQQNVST
Oligonucleotide	fluorescence intensity
GTCTTGTCTCATTGCTTAGTGGGTGTCCCCACTTCAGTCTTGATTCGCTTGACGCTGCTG	5010 a.u.
TGCGCAACAACTTGTTGCGTGGGTGTATGTCTAGAAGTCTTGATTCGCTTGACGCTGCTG	6640 a.u.
ATATTTCAGCTCCATCACGTGCTTTCAAAGGTACTTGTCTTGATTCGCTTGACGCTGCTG	15100 a.u.
TAGCTGACATCCAAGCATGCGTGGAAGATTTCTTAAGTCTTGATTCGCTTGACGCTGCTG	7620 a.u.
CTTCTGTAAATTTGTCACACCACTTGACGCGCCCCGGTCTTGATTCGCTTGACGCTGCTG	4020 a.u.
CATACCCAACCTTGTCACCTTACTTAAGATATTTGTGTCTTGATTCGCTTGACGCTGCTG	3850 a.u.
CTTTCCCGATCTTTTCACGTGGGGTTAGCACATTTGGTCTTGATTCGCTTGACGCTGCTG	16600 a.u.
TTTAAAAGATGAAAGCACGTTACAAGCCTCTTCTTAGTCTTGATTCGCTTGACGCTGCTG	8760 a.u.
GTTTCTCTACGATTACACGGGTGAAGCCATTCTCTGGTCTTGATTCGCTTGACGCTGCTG	6280 a.u.
CTTTCCCGATCTTGGAGAGTGGGTGTAGCACATTTGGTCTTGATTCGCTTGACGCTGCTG	4500 a.u.
CGCAAATGGGCATTTGATGTGACGAAAAATTTGGACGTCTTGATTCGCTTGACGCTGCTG	3400 a.u.
AAATTACTAAGTTGACCAGTGGGTGACGCCGTATGAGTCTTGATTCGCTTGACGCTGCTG	3640 a.u.
CTTCTGTAAATTTGTCACGCCACTTGACGCGCCCCGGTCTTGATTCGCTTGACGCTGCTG	5070 a.u.
CAAGGTTTTCTTTGCCACGCTCAAGCATTCATCGTTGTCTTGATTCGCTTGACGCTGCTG	6530 a.u.
AACGACTTCGTCAAGTCCGTGACGGAGTCGGGGTACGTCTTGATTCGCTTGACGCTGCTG	4120 a.u.
CTTTCCCGATCTTGACTAGTGGGTGTAGCACATTTGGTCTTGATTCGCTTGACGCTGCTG	4090 a.u.
CTAACGAAGGTTTTTCACGTGACTTACAAGCCAAGTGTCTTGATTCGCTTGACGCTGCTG	10300 a.u.
CGGGGTTAAGTTTGTGACGTGGGTGGCTTGCAGCAGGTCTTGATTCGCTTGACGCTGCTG	6090 a.u.
CTTGCCTACATATATTTCGTGCGATTTCAAAAATAAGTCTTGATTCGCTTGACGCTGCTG	5500 a.u.

Study 4
Target: Histone acetyltransferase KAT6A, winged helix 1, GST fusion (KAT6A, Homo sapiens, UniProt Q92794, residues 1-85)
Technique: protein binding microarray
Form: double-stranded DNA, one strand shown
Sample: in vitro
Tested at: not given
Notes: 8-mer, flanks averaged, mean of 2 arrays, mostly near background
Baseline: not given
Direction: higher = stronger binding
Construct (chain): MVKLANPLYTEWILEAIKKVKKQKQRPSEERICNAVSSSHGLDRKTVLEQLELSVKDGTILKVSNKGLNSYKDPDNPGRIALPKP
Oligonucleotide	E-score
CCCAATTA	-0.13
GGGGAGAA	-0.0175
TATAGTCA	-0.124
GATAGAGA	-0.136
AGGACGCC	0.0704
CACCAGAG	-0.202
CACAGATG	-0.217
AATCGACA	-0.121
AGGATCAG	-0.163
GTGGGATA	-0.0832
CCGCCAAC	0.236
ACTTCAAC	-0.153
GGACTAAC	-0.105
AGACAGCG	0.182
GCGTGTAA	0.156
CGAGCAGA	-0.0858
CTAAACGC	0.191
CAAGCACG	0.0516
ACTGCCGC	0.373
CATCAGCG	0.255
CAGTCTGG	-0.238
GCCATAGC	0.0738
ACGTGGCG	0.205
CGTGAGGA	0.107
CTAGTAAC	-0.0485

Repeated from above (study 4):
Oligonucleotide	E-score
GATAGAGA	-0.136
AGGACGCC	0.0704
CACCAGAG	-0.202
CACAGATG	-0.217
AATCGACA	-0.121
